Measurements collected from several papers.
Parts stem from different laboratories: compare values within a part only.

Block 1
Target: RING finger protein unkempt homolog, zinc fingers 1-6, GST-SBP tag (UNK, Homo sapiens, UniProt Q9C0B0, residues 30-357)
Sequence of UniProt Q9C0B0 (30-357, looked up): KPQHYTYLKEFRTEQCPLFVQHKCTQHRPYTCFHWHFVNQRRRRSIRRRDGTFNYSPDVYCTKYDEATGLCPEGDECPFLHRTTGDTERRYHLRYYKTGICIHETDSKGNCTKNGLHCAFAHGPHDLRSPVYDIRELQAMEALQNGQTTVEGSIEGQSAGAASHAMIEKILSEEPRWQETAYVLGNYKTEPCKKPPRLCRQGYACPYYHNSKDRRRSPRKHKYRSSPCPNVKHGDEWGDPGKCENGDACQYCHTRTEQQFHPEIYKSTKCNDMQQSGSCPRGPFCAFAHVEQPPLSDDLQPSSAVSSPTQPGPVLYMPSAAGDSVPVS
Technique: RNA Bind-n-Seq
Molecule type: RNA
Sample: in vitro
Concentration: not given
Notes: RNA with constant flanks, human-mouse chimeric sites, ends assumed
Relative to: input RNA pool
Direction: higher = stronger binding
Constant ends, left off below: GGGAGUUCUACAGUCCGACGAUC … CAACAGAGGAUUGAGCAUCA
Strand	bound/input enrichment
CAGGGCACAGCACCUACCCCCUCCUCCUUUCCACACCUGCAAACUCUUUUACUUGGGCUGAAUAUUUAGUGUAAUUACAUCUCAGCUUUGAGGGCUCCUGUGGCAAAAUACCCGGAUAAA	0.783 ratio
UAAAUCCUGUGCCAGCACUUCGCUCAUAAAGUUUUAAAUUCUGGACCAAUAGUGUUUGUUUCCUGAUUUUUGUAUUCAAUACUUUGCCUAGUAUGUAACUCACUCUUACUGAUAAUAAAA	0.974 ratio
GACUUUGGGACUGGUCCUCGCAACGCAGCCUACUAUAGCCCUCAUGGACAUAUAUUAGUAUUAGCUGGAUUUGGAAAUCUUCGAGGACAAAUGGAAGUAUGGGAUGUUAAAAACUACAAG	0.587 ratio
UCGGAUGCUGUGCUGGGUCACUUUUCAUAUCCUGAUCCUUCACAGUGGACAGAUGAAGAAUUAGGUAUCCCUCCUGAUGACGAGGACUGACACUGUAAACUCUCUGGACGAGUAGGAGCA	0.587 ratio
GCUCCUCCCCGCUCUGCCCCUGCCUGCCACUGGGCUGCAUUUUUUUUCCAGCUUUCUUUUAAAACUCUCAGUGUAACUGUAUCCCGUGACAUUUCAUUUUUUUUAAAUAGUGUAUUUUUU	5.83 ratio
GGACCAUAAUCAUGGUGGACAUAAUGCAGCUCCCCAAAGCGCGCGUCAACGCCAGCAUGUUACCACAGUAUAUCGACCGGCCCGUGUGCUUCGUGGGGAAGCUGGAAAAGAUUCAUCCCA	0.124 ratio
UCUGGUCACACUCGUGUGUAUGGUGUUUGCUUUGUGGACACUUCACUGGGCAAGUUUUUCAUCGGCCAGUUUUCAGAUGACCGCCACUGUUCGAGAUUUAGGACGCUAGUGGCUCACUAU	0.201 ratio
AAAGCCCUUGAAGAAAAAAAAAACUCGAACAGAUUUGACAAGGGUAGCCAGCUUGGAGUCUAGCAACUUGCCAAUGUUGCUUACCAACUGGGGGCUUGUUUUUCUUUUCUUCUUUCAAAU	0.285 ratio

Block 2
Target: Hepatocyte nuclear factor 3-beta, forkhead domain (FOXA2, Homo sapiens, UniProt Q9Y261, residues 142-269)
Technique: protein-binding microarray
Molecule type: double-stranded DNA, one strand shown
Sample: in vitro
Concentration: not given
Notes: k-mer, scored over probes, only values ≥0.25
Direction: higher = stronger binding
Residues (chain): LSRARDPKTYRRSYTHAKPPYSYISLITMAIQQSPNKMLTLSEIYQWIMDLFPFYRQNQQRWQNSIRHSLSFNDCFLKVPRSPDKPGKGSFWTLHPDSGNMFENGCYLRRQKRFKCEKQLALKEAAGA
Strand	E-score
CTGCATAC	0.273
ATGTACAC	0.342
TATGCACA	0.331
TATATAGA	0.37
ATTACTTA	0.281
ATATATCA	0.369
ATTAGACG	0.255
ATAATTTA	0.289

Further values, each from its own experiment
Molecule	tested on	test	test system	conditions	quantity	result
RRP12 (Homo sapiens, UniProt Q5JTH9)	WDR3 (Homo sapiens, UniProt Q9UNX4)	cross-linking MS	cell fractions	together with: DSSO	cross-linked residues	S515 to K536
APFARLLNL	HLA class I histocompatibility antigen, A alpha chain, allele A*80:01 (Homo sapiens, UniProt P04439)	peptide-MHC binding	peptide	concentration not given	binding	inactive
ILF2 (Homo sapiens, UniProt Q12905)	ILF3 (Homo sapiens, UniProt Q12906)	cross-linking MS		hits only	interaction screen	cross-linked
